Results of several laboratories.
Compare with care: the assays were run in different laboratories.
Target: Serine/threonine-protein kinase 32A (STK32A, Homo sapiens, UniProt Q8WU08)

`Cc1cnc2nc1Nc1cccc(c1)COC/C=C/COCc1cc(ccc1OCCN1CCOCC1)N2` gave a remaining binding of 97% (binding, competition with immobilised ligand; 0.1 µM).
With `CCN1CCN(Cc2ccc(NC(=O)c3ccc(C)c(NC(=O)c4cncc(-c5cnn(C)c5)c4)c3)cc2C(F)(F)F)CC1` the remaining binding was 100% (binding, competition with immobilised ligand; 1 µM).
For `COc1cc(Nc2nccc(-c3cnn4nc(OC)ccc34)n2)cc(C(F)(F)F)c1`, the remaining binding was 94% (binding, competition with immobilised ligand; 1 µM).
`CCN1CCN(Cc2ccc(C(=O)Nc3ccc(C)c(NCc4cnc5[nH]ccc5c4OC)c3)cc2C(F)(F)F)CC1` has a remaining binding of 68% (binding, competition with immobilised ligand; 1 µM).
The inhibition of `CN1CC[C@@H](COc2cnc(C#N)cc2-c2ccn3nc(NC(=O)C4CC4)cc3c2)C1` is reported as -4% (enzyme activity, inhibitor; 1 µM).
The remaining binding of `CNC1C[S+]2CC[S+]3CC[S+](C1)[Ru-4]321([N]=C=S)[n]2c3ccc(OC)cc3c3c4c(c5cc(F)c[n+]1c5c32)C(=O)NC4=O` (stereo not shown) is reported as 88% (KinomeScan; 0.1 µM; relative to: untreated).
`Nc1ncc2c(n1)-c1c([nH]c3ccc(C4=CCOCC4)cc13)CCC2` gave a remaining binding of 100% (binding, competition with immobilised ligand; 1 µM).
For `COc1c(Cl)cccc1Nc1c(-c2ccncc2C#C[C@@]2(C)CCCN2C(=O)/C=C/CN(C)C)[nH]c2c1C(=O)NCC2`, the remaining binding was 27% (binding, competition with immobilised ligand; 3 µM).
The remaining binding of `CC(C)=CC1OC(C)(C)C2C=C3C(=O)C(Cl)=CC(O)C3C3C(O)C4OC4C(=O)C132` (stereo not shown) is reported as 80% (cell-free assay, competition with immobilised ligand; 10 µM).
`C=CC(=O)N1CCc2ccc(-n3c(=O)ccc4cnc5ccc(-c6cnn(C)c6)cc5c43)cc21` has a remaining binding of 100% (KINOMEscan; 1 µM; relative to: DMSO control).
`O=C(Cc1ccc(OCc2ccccc2)cc1)NC1(C(=O)O)CCN(C(=O)c2ccc(-c3cccc(Cl)c3)cc2)CC1`: “activity vs control” 98% (enzyme activity, inhibitor; 10 µM).
With `C=CC(=O)N1CCCC(n2c(=O)c3ncccc3n(Cc3ccc(Oc4ccccc4)cc3)c2=O)C1` (stereo not shown) the remaining binding was 90% (cell-free assay, competition with immobilised ligand; 1 µM).
`COc1cc(Nc2nc(C)cc(-c3cnn4nc(OC)ccc34)n2)cc(C(F)(F)F)c1` has a remaining binding of 63% (binding, competition with immobilised ligand; 1 µM).
For `CNC(=O)C1CCN(c2cc(C)c(F)cc2NC(=O)c2ccc(-c3cc(O)ccc3C)c(C)c2)CC1`, the remaining binding was 100% (binding, competition with immobilised ligand; 1 µM).
`CNC(=O)C[C@H](Cc1ccc(C#N)cc1)NC(=O)c1cc(-c2ccc(CN[C@H](C)c3ccc(C)cc3)o2)ccc1Cl` — result for “activity vs control”: 100% (enzyme activity, inhibitor; 1 µM).
For `Cc1ccc(-c2c(/C=C(\C#N)C(=O)NC(C)C)n(CCCO)c3ncnc(N)c23)cc1`, the remaining binding was 96% (cell-free assay, competition with immobilised ligand; 1 µM).

Excerpt of the above:
`CCN1CCN(Cc2ccc(C(=O)Nc3ccc(C)c(NCc4cnc5[nH]ccc5c4OC)c3)cc2C(F)(F)F)CC1` has a remaining binding of 68% (binding, competition with immobilised ligand; 1 µM).
The inhibition of `CN1CC[C@@H](COc2cnc(C#N)cc2-c2ccn3nc(NC(=O)C4CC4)cc3c2)C1` is reported as -4% (enzyme activity, inhibitor; 1 µM).
